Measured values of several laboratories.
Numbered parts are unrelated; each lists some results of a single study. Several values in a cell are separate wells, animals, samples, runs or records.
Chain of UniProt P23975 (whole entry, looked up): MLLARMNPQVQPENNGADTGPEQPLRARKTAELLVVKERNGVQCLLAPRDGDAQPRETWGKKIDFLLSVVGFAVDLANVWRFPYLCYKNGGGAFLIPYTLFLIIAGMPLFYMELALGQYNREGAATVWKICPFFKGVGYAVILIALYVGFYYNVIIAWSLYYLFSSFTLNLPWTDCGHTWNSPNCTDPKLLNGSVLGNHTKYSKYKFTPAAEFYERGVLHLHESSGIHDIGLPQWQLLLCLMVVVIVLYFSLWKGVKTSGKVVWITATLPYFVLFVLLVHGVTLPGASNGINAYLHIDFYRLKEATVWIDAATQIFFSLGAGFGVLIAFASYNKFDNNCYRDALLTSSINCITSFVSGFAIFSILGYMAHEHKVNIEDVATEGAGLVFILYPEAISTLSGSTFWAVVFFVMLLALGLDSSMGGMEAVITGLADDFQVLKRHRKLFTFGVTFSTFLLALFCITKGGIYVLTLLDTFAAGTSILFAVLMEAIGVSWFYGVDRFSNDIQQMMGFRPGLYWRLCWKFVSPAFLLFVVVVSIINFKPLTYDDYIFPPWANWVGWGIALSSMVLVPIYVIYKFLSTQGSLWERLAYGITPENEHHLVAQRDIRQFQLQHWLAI
Chain of UniProt P28335 (whole entry, looked up): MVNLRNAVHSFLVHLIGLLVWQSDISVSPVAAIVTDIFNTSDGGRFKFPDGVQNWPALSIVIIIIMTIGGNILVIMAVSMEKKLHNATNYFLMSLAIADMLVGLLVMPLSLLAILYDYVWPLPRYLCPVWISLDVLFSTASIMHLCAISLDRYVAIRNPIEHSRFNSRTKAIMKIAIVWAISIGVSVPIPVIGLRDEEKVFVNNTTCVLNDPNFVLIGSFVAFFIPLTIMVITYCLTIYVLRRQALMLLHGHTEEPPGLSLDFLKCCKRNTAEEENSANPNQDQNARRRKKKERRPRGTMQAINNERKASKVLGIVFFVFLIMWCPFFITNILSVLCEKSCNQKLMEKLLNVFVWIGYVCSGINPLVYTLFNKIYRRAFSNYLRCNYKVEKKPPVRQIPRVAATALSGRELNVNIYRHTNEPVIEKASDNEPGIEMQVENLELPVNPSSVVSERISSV
Chain of UniProt P29376 (whole entry, looked up): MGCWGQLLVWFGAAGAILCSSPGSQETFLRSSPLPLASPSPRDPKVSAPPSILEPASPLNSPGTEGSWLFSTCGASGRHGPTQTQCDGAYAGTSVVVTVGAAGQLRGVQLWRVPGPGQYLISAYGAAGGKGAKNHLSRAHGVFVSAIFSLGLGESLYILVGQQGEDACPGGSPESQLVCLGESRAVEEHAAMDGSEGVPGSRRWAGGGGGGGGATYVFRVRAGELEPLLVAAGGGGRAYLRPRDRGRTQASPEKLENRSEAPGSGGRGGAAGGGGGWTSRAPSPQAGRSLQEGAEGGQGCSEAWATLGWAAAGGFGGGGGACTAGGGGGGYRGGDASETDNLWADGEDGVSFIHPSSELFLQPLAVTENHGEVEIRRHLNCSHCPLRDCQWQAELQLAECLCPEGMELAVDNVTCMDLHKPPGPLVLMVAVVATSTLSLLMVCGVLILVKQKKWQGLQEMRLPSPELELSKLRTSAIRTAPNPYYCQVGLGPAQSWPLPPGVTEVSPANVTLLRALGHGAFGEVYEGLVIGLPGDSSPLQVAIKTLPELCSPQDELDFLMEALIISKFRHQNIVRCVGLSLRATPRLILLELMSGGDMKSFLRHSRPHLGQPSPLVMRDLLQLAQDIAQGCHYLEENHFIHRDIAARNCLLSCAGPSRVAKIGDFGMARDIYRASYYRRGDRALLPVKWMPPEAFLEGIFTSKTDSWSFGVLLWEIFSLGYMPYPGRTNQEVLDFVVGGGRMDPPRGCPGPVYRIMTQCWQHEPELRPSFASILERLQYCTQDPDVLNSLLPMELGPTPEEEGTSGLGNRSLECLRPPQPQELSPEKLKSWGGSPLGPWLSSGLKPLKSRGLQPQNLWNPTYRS

Sample 1 — read-out: enzyme activity; mode: inhibitor; tested at: 77 µM; baseline: untreated; measurement: remaining activity
Target: DNA polymerase theta, ATPase domain (POLQ, Homo sapiens, UniProt O75417)
Chain of UniProt O75417 (whole entry, unmodified, looked up): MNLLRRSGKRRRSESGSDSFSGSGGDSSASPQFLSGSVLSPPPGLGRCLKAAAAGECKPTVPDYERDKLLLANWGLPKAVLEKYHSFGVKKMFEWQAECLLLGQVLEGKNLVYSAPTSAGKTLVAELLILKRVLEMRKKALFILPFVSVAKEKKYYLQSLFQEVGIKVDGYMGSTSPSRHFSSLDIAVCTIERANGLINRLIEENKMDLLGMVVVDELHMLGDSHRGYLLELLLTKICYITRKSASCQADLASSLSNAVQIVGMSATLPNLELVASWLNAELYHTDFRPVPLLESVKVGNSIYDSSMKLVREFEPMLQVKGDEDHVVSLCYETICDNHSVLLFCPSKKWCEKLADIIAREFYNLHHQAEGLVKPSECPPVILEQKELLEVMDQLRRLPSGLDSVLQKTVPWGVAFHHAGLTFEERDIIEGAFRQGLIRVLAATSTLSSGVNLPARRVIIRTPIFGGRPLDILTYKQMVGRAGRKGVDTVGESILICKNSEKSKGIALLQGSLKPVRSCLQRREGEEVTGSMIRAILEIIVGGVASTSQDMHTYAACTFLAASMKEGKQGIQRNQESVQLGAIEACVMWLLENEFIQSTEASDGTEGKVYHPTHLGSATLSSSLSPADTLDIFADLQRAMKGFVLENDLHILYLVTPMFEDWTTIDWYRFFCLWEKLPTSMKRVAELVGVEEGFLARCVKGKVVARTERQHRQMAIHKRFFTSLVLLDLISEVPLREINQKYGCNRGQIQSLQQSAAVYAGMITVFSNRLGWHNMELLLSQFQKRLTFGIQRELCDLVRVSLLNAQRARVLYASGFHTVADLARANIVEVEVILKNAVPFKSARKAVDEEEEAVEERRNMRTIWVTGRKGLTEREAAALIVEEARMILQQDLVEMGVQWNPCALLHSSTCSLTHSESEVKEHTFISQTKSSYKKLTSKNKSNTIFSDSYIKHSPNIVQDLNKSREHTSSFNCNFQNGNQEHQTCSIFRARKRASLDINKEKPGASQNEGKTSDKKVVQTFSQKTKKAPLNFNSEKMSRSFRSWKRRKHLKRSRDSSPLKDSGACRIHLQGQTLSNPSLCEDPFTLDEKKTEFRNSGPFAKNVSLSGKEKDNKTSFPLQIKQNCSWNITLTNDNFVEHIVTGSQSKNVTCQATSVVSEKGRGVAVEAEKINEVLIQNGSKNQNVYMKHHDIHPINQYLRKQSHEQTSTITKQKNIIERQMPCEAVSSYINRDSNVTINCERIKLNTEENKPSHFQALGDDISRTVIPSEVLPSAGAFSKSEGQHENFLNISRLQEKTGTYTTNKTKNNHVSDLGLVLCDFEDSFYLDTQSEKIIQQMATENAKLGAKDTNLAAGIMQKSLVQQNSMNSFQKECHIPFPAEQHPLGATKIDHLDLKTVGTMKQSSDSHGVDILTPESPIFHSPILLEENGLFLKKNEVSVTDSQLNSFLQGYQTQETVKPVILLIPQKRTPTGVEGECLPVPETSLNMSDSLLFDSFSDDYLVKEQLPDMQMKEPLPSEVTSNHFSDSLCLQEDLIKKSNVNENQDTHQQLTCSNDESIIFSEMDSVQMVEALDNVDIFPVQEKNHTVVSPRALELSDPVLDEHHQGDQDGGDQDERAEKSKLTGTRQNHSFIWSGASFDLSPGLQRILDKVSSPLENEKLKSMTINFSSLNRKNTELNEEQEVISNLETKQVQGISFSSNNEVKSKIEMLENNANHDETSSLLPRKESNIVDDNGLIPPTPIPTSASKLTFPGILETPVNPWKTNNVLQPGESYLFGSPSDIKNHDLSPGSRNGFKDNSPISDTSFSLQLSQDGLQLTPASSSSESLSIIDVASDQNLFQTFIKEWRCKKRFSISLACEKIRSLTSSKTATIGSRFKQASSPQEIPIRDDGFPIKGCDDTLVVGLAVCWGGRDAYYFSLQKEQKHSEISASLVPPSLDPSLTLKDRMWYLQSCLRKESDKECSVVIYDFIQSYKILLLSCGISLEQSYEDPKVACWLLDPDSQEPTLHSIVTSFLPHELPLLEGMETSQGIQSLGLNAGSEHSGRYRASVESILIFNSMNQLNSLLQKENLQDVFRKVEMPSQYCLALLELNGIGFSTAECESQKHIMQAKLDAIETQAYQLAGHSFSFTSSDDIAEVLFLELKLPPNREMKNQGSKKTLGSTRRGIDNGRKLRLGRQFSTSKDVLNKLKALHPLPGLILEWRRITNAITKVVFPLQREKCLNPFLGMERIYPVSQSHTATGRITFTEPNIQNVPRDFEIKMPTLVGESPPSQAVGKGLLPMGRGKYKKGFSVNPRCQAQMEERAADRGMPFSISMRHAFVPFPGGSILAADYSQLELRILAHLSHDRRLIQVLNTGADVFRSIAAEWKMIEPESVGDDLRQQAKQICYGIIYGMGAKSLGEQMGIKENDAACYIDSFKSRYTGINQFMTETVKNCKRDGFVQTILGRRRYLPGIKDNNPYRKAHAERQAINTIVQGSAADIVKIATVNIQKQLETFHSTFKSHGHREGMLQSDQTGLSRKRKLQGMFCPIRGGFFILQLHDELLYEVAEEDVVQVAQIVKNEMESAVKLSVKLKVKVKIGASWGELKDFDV
CCC1(c2cccc(O)c2)CCCCN(C)C1 (centres unmarked): 102%
NC(Cc1cc(O)c(O)cc1O)C(=O)O (racemic): 81.5%
CC(=O)Nc1ccc(OC[C@](C)(O)C(=O)Nc2ccc([N+](=O)[O-])c(C(F)(F)F)c2)cc1: 93.1%

Sample 2 — cell line: L929 RIPK3-/- reexpressing RIPK3 K51A; method: CCK-8; measurement: survival
Compound: CC(C)S(=O)(=O)c1cc2c(Nc3ccc4sc(C5CCCC5)nc4c3)ccnc2cc1OCCO
12.5 µM, added: zVAD: 59.3% and 58.9% and 71.8% and 64% and 64.7%
1.563 µM: 93.6% and 95.9% and 96% and 84.7% and 97.2%
3.125 µM, added: zVAD: 92.3% and 85.1% and 85% and 93.2% and 92.6%

Mixed results
CRK2: Cyclin-dependent kinase 2 homolog (CRK2, Plasmodium falciparum, UniProt P61075)
Chain of UniProt P61075 (whole entry, looked up): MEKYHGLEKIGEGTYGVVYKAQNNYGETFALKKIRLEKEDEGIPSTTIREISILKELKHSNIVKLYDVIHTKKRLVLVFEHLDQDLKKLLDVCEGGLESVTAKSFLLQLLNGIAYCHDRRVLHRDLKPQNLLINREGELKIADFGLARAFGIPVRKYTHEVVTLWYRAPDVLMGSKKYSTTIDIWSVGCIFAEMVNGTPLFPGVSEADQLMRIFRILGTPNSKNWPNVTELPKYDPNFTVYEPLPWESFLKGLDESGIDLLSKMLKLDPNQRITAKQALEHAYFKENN
CN([C@@H]1CCc2c(CC(=O)O)c3cc(S(C)(=O)=O)ccc3n2C1)S(=O)(=O)c1ccc(F)cc1 — inhibition (HTR2C (Homo sapiens, UniProt P28335); binding, radioligand binding; 10 µM): 0.933%
COC[C@H]1OC(=O)c2coc3c2[C@@]1(C)C1=C(C3=O)[C@@H]2CCC(=O)[C@@]2(C)C[C@H]1OC(C)=O — activity vs control (LTK (Homo sapiens, UniProt P29376); enzyme activity, inhibitor, radiometric; 0.5 µM): 100%
O=C(O)[C@@H]1[C@@H](Cn2nnc3ccccc3c2=O)CC[C@H]1C(=O)c1ccc(OCCC2CCOCC2)cc1 — remaining binding (CRK2; cell-free assay, competition with immobilised ligand; 1 µM): 100%
Cn1nc(C(F)(F)F)cc1-c1cnc(N2CCc3cc(S(=O)(=O)Nc4c(F)cc(Cl)cc4F)cc(N4CCCC4=O)c32)nc1 — remaining binding (CRK2; cell-free assay, competition with immobilised ligand; 1 µM): 73%
Cc1cc2c(-c3ccco3)cnc(N[C@H]3CCN(C)C[C@@H]3C(=O)NC3CCCCC3)c2[nH]c1=O — inhibition (SLC6A2 (Homo sapiens, UniProt P23975); cell-free assay; 10 µM): 32.4%

Some of these lines once more (mixed results):
CN([C@@H]1CCc2c(CC(=O)O)c3cc(S(C)(=O)=O)ccc3n2C1)S(=O)(=O)c1ccc(F)cc1 — inhibition (HTR2C (Homo sapiens, UniProt P28335); binding, radioligand binding; 10 µM): 0.933%
COC[C@H]1OC(=O)c2coc3c2[C@@]1(C)C1=C(C3=O)[C@@H]2CCC(=O)[C@@]2(C)C[C@H]1OC(C)=O — activity vs control (LTK (Homo sapiens, UniProt P29376); enzyme activity, inhibitor, radiometric; 0.5 µM): 100%
